Experimental data gathered from unrelated publications.
Each numbered part is a random draw from the data of one study; scales do not carry over between parts. Values joined by “and” are separate records of one study, mostly repeats; a detail may differ.

Study 1
SMILES: Cc1ncsc1-c1ccc(C(CO)NC(=O)C2CC(O)CN2C(=O)C(NC(=O)c2ccc(COc3c(-c4c(C)c(F)cc5[nH]ncc45)c(C4CC4)cc4c(N5CC6CC5CN6)nc(OC5CCOCC5)nc34)cc2)C(C)C)cc1 (centres unmarked)
Cell line: AsPC-1
Method: in-cell ELISA
10 nM, individual replicates — phospho-ERK1/2 level: 93.8% and 89.1% and 95.6% and 85% and 85.9%.
3 nM, per-experiment values — phospho-ERK1/2 level: 96.8% and 98.5% and 89.4%.
For 30 nM, per-experiment values: phospho-ERK1/2 level read 86% and 75.2% and 81.5%.

Study 2
Compound: C[C@@H]1CN(c2ccc(-c3cc(C(=O)NCCOCCOCCOCCOCCOCCOCCNC(=O)/C=C/c4[nH]cc(C(=O)N[C@@H](CC(N)=O)c5ccc(F)c(Cl)c5)c4-c4ccc(Cl)cc4F)ccc3F)cc2NC(=O)c2ccc(F)cc2C(F)(F)F)C[C@H](C)N1C
Observed: thermal unfolding
Method: differential scanning fluorimetry
Concentration: 5.5 µM
Direction: higher = more unfolded
WDR5: WD repeat-containing protein 5 (WDR5, Homo sapiens, UniProt P61964)
DCAF1: DDB1- and CUL4-associated factor 1 (DCAF1, Homo sapiens, UniProt Q9Y4B6)
UniProt Q9Y4B6, sequence (whole entry, looked up): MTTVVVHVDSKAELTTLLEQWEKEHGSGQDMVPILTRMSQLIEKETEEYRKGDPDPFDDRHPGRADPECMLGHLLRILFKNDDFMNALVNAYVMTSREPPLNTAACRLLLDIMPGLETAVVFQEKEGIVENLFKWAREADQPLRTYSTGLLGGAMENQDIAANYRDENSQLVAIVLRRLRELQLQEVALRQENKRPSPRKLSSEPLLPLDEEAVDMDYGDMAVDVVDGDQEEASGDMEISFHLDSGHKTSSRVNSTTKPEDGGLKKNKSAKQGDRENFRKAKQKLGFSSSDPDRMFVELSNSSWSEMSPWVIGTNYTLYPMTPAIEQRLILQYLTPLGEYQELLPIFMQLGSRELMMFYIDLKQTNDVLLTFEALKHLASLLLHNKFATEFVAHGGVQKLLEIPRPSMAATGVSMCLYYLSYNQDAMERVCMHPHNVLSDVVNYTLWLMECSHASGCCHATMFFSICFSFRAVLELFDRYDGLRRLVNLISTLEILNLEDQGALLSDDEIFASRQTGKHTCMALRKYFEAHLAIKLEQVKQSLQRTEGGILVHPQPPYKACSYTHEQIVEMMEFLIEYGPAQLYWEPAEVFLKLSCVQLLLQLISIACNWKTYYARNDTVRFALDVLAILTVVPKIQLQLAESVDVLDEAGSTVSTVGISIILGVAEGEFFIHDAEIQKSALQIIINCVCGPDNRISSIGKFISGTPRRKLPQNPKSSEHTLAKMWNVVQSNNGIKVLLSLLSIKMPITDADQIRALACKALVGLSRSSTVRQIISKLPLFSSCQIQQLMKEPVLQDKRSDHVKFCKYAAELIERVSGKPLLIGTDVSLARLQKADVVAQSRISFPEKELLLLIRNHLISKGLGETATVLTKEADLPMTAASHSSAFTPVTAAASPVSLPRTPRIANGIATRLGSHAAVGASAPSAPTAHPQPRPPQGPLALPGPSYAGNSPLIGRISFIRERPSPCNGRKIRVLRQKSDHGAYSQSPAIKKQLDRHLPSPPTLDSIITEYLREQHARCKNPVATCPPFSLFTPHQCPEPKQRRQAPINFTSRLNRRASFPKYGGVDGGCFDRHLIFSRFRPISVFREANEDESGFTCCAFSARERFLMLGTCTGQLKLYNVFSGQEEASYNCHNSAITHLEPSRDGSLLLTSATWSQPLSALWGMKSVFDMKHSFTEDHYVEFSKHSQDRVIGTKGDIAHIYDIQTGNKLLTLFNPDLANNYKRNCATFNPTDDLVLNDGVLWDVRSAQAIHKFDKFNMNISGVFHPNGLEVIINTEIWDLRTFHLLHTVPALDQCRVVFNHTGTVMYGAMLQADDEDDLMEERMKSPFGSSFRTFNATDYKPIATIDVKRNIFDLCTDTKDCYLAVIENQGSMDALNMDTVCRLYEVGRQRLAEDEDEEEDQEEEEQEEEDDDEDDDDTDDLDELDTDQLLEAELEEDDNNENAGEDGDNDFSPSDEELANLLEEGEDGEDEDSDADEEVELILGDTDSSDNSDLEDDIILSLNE
It gave 19200 a.u. for “SYPRO Orange fluorescence” (WDR5; 67.01 °C).
WDR5; 28.6 °C — “SYPRO Orange fluorescence”: 13500 a.u.
The “SYPRO Orange fluorescence” was 19800 a.u. (DCAF1; 51.6 °C).
DCAF1; 90.61 °C — “SYPRO Orange fluorescence”: 31900 a.u.
The “SYPRO Orange fluorescence” was 15400 a.u. (WDR5; 60.01 °C).
It gave 16800 a.u. for “SYPRO Orange fluorescence” (WDR5; 51.2 °C).
For DCAF1; 70.41 °C: “SYPRO Orange fluorescence” read 47900 a.u.
The “SYPRO Orange fluorescence” was 16900 a.u. (WDR5; 65.61 °C).
For DCAF1; 40.4 °C: “SYPRO Orange fluorescence” read 11700 a.u.
For DCAF1; 60.81 °C: “SYPRO Orange fluorescence” read 49800 a.u.
For WDR5; 68.81 °C: “SYPRO Orange fluorescence” read 23800 a.u.

Study 3
SMILES: Cc1nc2c([nH]1)c(=O)[nH]c(=S)n2Cc1cccc(OC/C(=C/F)CN)c1
MPO: Myeloperoxidase (MPO, Homo sapiens, UniProt P05164)
UniProt P05164, sequence (whole entry, looked up): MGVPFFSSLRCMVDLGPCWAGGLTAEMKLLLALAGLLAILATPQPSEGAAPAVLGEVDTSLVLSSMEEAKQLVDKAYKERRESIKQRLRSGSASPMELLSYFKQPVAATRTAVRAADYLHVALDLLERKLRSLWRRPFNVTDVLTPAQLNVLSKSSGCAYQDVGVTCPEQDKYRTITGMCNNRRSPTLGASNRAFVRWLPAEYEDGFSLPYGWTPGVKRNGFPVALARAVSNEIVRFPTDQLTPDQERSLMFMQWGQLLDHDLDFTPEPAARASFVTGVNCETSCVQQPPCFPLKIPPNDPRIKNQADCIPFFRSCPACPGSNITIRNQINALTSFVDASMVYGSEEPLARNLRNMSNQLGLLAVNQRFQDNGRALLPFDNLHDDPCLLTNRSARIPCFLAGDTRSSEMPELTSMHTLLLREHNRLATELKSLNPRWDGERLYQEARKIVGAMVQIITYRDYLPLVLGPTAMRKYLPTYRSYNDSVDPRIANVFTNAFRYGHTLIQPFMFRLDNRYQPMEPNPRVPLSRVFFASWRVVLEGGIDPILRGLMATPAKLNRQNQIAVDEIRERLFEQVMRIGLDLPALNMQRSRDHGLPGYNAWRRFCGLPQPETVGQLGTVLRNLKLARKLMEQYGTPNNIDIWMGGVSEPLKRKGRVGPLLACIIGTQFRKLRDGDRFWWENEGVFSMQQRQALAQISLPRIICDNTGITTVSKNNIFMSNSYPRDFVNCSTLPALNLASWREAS
AOC3: Amine oxidase [copper-containing] 3 (AOC3, Homo sapiens, UniProt Q16853)
UniProt Q16853, sequence (whole entry, looked up): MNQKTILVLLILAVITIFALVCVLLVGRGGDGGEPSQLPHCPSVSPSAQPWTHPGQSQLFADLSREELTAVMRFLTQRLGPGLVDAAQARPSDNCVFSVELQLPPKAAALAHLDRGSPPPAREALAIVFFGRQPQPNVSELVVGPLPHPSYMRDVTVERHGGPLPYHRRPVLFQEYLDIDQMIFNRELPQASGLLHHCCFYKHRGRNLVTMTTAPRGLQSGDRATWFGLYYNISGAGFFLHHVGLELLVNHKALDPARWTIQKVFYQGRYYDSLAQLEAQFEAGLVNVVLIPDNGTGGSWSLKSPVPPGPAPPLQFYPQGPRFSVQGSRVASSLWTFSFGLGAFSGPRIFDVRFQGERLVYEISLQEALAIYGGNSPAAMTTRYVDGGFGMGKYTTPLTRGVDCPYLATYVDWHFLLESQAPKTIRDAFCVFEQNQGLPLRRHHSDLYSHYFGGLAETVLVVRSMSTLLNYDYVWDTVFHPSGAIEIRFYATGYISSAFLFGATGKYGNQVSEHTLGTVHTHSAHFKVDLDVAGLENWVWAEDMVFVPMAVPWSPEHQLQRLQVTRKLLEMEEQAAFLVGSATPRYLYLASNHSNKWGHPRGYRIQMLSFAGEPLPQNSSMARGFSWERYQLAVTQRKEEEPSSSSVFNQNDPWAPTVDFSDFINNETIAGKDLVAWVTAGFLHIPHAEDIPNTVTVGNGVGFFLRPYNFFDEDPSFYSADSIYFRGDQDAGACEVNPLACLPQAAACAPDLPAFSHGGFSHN
For MPO; enzyme activity, inhibitor, fluorescence; 41.2 nM: inhibition read -0.15%.
It gave 99.8% and 98.9% for inhibition (MPO; enzyme activity, inhibitor, fluorescence; 15 µM).
The inhibition was 87.7% (MPO; enzyme activity, inhibitor, fluorescence; 3.333 µM).
The inhibition was 103% and 101% and 100% (AOC3; enzyme activity, inhibitor, fluorescence; 30 µM).
MPO; enzyme activity, inhibitor, fluorescence; 0.3704 µM — inhibition: 38.3%.
For AOC3; enzyme activity, inhibitor, fluorescence; 3.333 µM: inhibition read 100% and 97.8%.
MPO; Amplex Red; 0.0206 µM — inhibition: -3.51% and -11.8%.
For MPO; enzyme activity, inhibitor, fluorescence; 800 pM: inhibition read -8.65% and -17.7%.

Study 4
Structure (SMILES): CCN1/C(=C/C=C2\CCCC(/C=C/C3=[N+](CC)c4ccccc4C3(C)C)=C2NCCCCCCCCN2CCC(Nc3nc4ccccc4n3Cc3ccc(F)cc3)CC2)C(C)(C)c2ccccc21
Cell line: U-87 MG
Concentration: concentration not given
Baseline: DMSO
measured: PKN3 mRNA — “log2 fold change”: -1.63.
The “log2 fold change” was -1.59 (measured: USP6 mRNA).
It gave 2.64 for “log2 fold change” (measured: TTC29 mRNA).
It gave -1.24 for “log2 fold change” (measured: PRADC1 mRNA).
For measured: TOM1L1 mRNA: “log2 fold change” read 0.979.
The “log2 fold change” was 2.83 (measured: ACTN2 mRNA).
measured: H4C15 mRNA — “log2 fold change”: 2.03.
It gave -1.73 for “log2 fold change” (measured: CENPO mRNA).
measured: MOB2 mRNA — “log2 fold change”: 0.848.
measured: S100A4 mRNA — “log2 fold change”: -2.37.
For measured: PARM1 mRNA: “log2 fold change” read 2.92.
For measured: CHST14 mRNA: “log2 fold change” read -0.901.
The “log2 fold change” was -1.67 (measured: SELL mRNA).
measured: NID2 mRNA — “log2 fold change”: -1.73.
It gave -0.951 for “log2 fold change” (measured: TMEM109 mRNA).
It gave 5.99 for “log2 fold change” (measured: MMP10 mRNA).

Some of these lines once more (study 2):
The “SYPRO Orange fluorescence” was 15400 a.u. (WDR5; 60.01 °C).
The “SYPRO Orange fluorescence” was 16900 a.u. (WDR5; 65.61 °C).
